Results gathered from unrelated publications.
Every numbered part comes from another study and shows a few of its results, in no order. Positions count from the first letter of the parent shown.
Sequence of UniProt Q8RYC8 (whole entry, looked up): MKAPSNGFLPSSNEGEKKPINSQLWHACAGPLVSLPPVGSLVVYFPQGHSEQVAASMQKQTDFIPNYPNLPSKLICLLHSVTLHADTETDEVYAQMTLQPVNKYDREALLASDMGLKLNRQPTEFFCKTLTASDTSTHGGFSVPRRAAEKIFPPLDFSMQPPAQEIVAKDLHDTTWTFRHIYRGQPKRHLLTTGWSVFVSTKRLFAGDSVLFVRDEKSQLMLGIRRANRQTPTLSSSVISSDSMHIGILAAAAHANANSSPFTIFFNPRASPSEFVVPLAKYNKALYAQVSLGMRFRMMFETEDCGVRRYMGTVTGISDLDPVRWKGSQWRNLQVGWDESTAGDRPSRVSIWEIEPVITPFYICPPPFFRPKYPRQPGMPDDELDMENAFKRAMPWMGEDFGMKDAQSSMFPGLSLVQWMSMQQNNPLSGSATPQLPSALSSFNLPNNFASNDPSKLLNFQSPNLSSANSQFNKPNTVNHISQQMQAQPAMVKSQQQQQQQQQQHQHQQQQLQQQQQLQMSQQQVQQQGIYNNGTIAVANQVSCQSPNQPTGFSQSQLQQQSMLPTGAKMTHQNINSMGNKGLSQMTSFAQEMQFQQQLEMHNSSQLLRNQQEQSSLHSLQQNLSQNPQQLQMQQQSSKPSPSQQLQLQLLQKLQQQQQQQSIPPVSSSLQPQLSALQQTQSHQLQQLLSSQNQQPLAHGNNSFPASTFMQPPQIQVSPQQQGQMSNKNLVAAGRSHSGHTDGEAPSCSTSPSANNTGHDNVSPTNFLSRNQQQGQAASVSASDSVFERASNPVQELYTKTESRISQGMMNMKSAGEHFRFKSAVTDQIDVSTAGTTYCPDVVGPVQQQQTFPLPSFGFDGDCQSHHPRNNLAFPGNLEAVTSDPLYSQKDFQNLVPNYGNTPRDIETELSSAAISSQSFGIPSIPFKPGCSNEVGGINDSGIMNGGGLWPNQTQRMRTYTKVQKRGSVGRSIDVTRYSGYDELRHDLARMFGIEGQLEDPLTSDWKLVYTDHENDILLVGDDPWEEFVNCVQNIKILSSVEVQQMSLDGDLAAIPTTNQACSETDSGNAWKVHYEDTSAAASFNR
Sequence of UniProt Q9C5W9 (whole entry, looked up): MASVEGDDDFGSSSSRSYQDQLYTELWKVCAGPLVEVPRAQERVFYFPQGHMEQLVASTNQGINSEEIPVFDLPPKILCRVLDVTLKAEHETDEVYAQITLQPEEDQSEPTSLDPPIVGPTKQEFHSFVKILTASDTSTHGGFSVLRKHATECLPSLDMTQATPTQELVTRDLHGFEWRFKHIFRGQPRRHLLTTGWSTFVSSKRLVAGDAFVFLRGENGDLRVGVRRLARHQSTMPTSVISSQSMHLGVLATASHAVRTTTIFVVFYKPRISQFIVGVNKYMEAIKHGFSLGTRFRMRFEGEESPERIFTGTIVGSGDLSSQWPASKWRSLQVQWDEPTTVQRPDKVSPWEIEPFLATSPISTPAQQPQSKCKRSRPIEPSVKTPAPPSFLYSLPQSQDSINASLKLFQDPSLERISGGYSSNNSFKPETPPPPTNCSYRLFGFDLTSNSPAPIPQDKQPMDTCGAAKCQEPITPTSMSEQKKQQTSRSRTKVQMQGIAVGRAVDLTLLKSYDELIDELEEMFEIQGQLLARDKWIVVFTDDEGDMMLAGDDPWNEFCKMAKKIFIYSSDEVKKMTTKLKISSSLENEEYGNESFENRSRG
Sequence of UniProt O23661 (whole entry, looked up): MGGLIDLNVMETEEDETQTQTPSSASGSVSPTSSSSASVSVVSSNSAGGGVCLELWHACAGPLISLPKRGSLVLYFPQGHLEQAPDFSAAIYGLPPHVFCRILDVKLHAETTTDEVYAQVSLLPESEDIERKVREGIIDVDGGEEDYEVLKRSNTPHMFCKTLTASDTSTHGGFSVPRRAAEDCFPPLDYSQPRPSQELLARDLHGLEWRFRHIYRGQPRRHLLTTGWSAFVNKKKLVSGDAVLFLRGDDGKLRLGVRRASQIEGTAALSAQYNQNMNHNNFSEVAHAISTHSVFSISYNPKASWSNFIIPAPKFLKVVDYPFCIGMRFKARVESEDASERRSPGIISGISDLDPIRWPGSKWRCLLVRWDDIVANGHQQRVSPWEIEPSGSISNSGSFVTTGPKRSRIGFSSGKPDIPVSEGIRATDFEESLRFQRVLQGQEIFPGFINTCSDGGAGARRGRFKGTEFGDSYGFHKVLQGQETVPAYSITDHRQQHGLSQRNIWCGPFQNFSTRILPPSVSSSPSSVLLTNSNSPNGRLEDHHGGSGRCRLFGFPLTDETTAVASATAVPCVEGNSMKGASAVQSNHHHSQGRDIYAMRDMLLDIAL
Sequence of UniProt Q93YR9 (whole entry, looked up): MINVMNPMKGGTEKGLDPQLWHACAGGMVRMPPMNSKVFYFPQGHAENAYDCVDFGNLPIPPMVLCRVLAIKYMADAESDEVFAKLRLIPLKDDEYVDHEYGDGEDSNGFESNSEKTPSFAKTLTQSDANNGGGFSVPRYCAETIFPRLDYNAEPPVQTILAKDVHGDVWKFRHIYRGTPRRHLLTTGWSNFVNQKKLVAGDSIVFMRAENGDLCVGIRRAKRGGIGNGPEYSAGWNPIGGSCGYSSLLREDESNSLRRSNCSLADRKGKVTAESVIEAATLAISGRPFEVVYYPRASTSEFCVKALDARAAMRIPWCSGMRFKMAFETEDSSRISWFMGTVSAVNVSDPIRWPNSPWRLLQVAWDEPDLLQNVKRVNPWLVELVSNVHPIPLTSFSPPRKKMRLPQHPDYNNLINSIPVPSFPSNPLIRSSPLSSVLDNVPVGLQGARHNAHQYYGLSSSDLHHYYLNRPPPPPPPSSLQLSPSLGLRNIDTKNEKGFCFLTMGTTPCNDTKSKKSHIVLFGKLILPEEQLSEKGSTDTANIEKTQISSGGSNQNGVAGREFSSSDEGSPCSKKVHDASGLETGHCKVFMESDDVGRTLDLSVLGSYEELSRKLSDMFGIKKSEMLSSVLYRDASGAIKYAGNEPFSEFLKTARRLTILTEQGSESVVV
Sequence of UniProt Q9M1R4 (whole entry, looked up): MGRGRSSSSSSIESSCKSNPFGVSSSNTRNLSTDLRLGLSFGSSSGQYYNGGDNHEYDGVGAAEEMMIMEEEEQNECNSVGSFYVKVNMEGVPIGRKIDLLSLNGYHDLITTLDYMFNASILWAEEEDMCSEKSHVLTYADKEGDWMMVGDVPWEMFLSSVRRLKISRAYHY
Sequence of UniProt Q9ZPY6 (whole entry, looked up): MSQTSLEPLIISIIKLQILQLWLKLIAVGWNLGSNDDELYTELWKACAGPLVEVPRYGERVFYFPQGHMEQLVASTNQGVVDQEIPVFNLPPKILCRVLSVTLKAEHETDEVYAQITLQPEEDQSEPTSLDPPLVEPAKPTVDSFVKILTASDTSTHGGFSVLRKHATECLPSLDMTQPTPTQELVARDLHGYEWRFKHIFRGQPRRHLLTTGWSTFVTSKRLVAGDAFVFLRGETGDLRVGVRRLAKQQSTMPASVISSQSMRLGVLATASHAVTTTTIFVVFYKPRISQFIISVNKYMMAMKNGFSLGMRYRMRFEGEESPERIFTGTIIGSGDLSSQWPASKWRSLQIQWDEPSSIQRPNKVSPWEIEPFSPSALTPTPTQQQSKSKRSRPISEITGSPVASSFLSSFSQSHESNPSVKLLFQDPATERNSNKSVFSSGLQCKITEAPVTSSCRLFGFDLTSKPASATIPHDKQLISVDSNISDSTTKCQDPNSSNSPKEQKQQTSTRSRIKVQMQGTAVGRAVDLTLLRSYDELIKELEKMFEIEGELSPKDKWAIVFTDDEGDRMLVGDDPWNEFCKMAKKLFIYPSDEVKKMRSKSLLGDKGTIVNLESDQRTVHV
Sequence of UniProt Q38832 (whole entry, looked up): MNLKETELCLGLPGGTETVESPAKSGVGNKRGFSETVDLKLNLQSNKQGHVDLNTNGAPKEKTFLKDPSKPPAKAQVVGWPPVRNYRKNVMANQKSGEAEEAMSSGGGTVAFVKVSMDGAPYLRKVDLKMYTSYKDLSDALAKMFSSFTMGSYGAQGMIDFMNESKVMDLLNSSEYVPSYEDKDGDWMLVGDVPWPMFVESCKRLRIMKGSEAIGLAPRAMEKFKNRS
Sequence of UniProt Q9C5X0 (whole entry, looked up): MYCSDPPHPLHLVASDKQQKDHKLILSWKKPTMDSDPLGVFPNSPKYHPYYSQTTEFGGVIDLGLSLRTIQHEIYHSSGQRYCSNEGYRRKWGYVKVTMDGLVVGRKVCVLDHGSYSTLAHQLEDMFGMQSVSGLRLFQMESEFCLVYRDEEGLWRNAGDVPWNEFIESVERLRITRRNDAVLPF

Sample 1 — technique: competition protein-binding microarray; form: double-stranded DNA, one strand shown; sample: in vitro; concentration: 2 µM; together with: Pho4 competitor, 0.05 µM; direction: higher = stronger binding; shared flanks, not repeated: … GTCTTGATTCGCTTGACGCTGCTG
Target: Centromere-binding protein 1, full length, His-tagged (CBF1, Saccharomyces cerevisiae, UniProt P17106, residues 1-351)
Sequence of UniProt P17106 (whole entry, looked up): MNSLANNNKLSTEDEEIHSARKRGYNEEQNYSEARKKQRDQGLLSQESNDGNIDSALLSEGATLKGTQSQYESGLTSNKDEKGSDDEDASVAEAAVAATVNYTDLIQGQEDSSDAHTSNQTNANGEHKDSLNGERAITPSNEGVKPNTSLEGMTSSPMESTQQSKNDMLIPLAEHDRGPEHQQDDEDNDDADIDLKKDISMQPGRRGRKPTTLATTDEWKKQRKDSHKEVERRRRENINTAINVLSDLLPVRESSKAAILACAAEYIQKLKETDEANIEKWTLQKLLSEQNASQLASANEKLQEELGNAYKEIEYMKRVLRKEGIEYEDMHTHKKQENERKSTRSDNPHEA
Notes: whole 60-bp probe, lowest competitor level
| Oligonucleotide | fluorescence intensity |
| --- | --- |
| CTTTCCCGATCTTGAGGGGTGGGTGTAGCACATTTG | 78.4 a.u. |
| CATACCCAACCTTGCCCAGTGGGTGAAGATATTTGT | 64.2 a.u. |
| CGTCCTAGTGATTGCGCCGTGGGTGCCATGAGGAAG | 78.4 a.u. |
| AGGGTTACCATTAAAAAGCGTCCCAGAAAAGGTGGA | 68.4 a.u. |
| AAACGGTCTTGGCATCAGGTGCAGTTGCCGTTTGTG | 88.3 a.u. |
| TTATCTGACGTCCATCACGTGAAGTGTTTTGCGTAG | 2700 a.u. |
| CTAACGAAGGTTTGCATAGTGGGTGACAAGCCAAGT | 67.8 a.u. |
| AAAGCGGTAATTTGGGGCGTGGGTGCAGATATCTAT | 78.9 a.u. |

Sample 2 — technique: aptamer microarray, sandwich; form: DNA with 2'F-ANA; sample: in vitro; concentration: 200 nM; together with: Cy3 exosite-II aptamer, 400 nM; direction: higher = stronger binding; oligonucleotide: GGTTGGTGTGGTTGG
Target: Prothrombin, mature alpha-thrombin (F2, Homo sapiens, UniProt P00734)
Notes: whole 15-mer aptamer, many near background
| Modification | mean fluorescence intensity [a.u.] |
| --- | --- |
| 2'F-ANA at 2 6 11 14 | 113 |
| 2'F-ANA at 2 3 4 6 9 13 14 15 | 199 |
| 2'F-ANA at 2 3 4 5 6 8 9 | 99.1 |
| 2'F-ANA at 4 5 6 7 9 13 14 15 | 44.7 |
| 2'F-ANA at 1 4 11 12 | 229 |
| 2'F-ANA at 1 2 3 4 5 7 8 9 14 15 | 52.7 |
| 2'F-ANA at 6 7 8 9 15 | 523 |
| 2'F-ANA at 5 9 11 | 63.6 |

Sample 3 — Sequence: B1 (IAA6); technique: two-hybrid; direction: higher = firmer interaction
B1: IAA6 (Arabidopsis thaliana, UniProt Q38824); chain MAKEGLALEITELRLGLPGDNYSEISVCGSSKKKKRVLSDMMTSSALDTENENSVVSSVEDESLPVVKSQAVGWPPVCSYRRKKNNEEASKAIGYVKVSMDGVPYMRKIDLGSSNSYINLVTVLENLFGCLGIGVAKEGKKCEYIIIYEDKDRDWMLVGDVPWQMFKESCKRLRIVKRSDATGFGLQQD
| partner | notes | reference | positive tests |
| --- | --- | --- | --- |
| ARF16 570-670 (Arabidopsis thaliana, UniProt Q93YR9) | – | out of 4 tests | 0 |
| ARF18 482-602 (Arabidopsis thaliana, UniProt Q9C5W9) | – | out of 2 tests | 0 |
| ETT (Arabidopsis thaliana, UniProt O23661) | – | out of 4 tests | 0 |
| IAA14 (Arabidopsis thaliana, UniProt Q38832) | – | out of 4 tests | 0 |
| IAA30 (Arabidopsis thaliana, UniProt Q9M1R4) | weak activation fusion | out of 4 tests | 1 |
| ARF19 948-1086 (Arabidopsis thaliana, UniProt Q8RYC8) | – | out of 4 tests | 0 |
| ARF11 500-622 (Arabidopsis thaliana, UniProt Q9ZPY6) | – | out of 4 tests | 0 |
| IAA34 (Arabidopsis thaliana, UniProt Q9C5X0) | – | out of 4 tests | 3 |

Mixed results
Starting sequence: viral docking peptide; KGVKRKLFAEDSS; partner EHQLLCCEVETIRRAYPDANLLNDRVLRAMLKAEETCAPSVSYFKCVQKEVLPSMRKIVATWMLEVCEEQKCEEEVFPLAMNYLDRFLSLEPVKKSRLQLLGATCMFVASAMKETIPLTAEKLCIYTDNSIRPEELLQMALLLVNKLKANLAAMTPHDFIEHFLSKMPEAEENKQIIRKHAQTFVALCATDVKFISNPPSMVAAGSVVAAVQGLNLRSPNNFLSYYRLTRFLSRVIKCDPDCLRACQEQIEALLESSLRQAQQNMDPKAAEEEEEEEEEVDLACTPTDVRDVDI
| Variant | target | assay | system | setting | how to read | measurement | value |
| --- | --- | --- | --- | --- | --- | --- | --- |
| R5Y | CCND1, cyclin fold, Cln2 fusion (human) | yeast growth competition, sequencing | yeast | strong parent motif | reference: not given, higher = stronger binding | normalised enrichment score | 0.0737 |

Repeated from above (sample 1):
| Oligonucleotide | fluorescence intensity |
| --- | --- |
| CTTTCCCGATCTTGAGGGGTGGGTGTAGCACATTTG | 78.4 a.u. |
| AAAGCGGTAATTTGGGGCGTGGGTGCAGATATCTAT | 78.9 a.u. |
